Experimental data of several laboratories.
Compare with care: the assays were run in different laboratories. ± gives the spread as reported.
SCN9A: Sodium channel protein type 9 subunit alpha (SCN9A, Homo sapiens, UniProt Q15858)
Replicase polyprotein 1a papain-like protease: Replicase polyprotein 1a, papain-like protease (Severe acute respiratory syndrome coronavirus 2, UniProt P0DTC1)
OPG122: mRNA-decapping protein OPG122 (OPG122, Vaccinia virus, UniProt P04312)
bglR: Beta-glucuronidase (bglR, Clostridium perfringens, UniProt Q8XP19)

`COc1cccc2[nH]c(C(=O)NC(CC(C)C)C(=O)NC(CC3CCCNC3=O)C(=O)COC(=O)c3c(C)cc(C)nc3C)cc12` (centres unmarked) gave an IC50 of 0.00017 µM (Procathepsin L (CTSL, Homo sapiens, UniProt P07711); enzyme activity, inhibitor; pH 5, with preincubation).
With `CC1=C(C(=O)Nc2ccc(F)cc2)C(c2ccccc2Br)NC(=S)N1` (centres unmarked) the IC50 was 0.0216 ± 0.00092 µM (Angiotensin-converting enzyme 2, with SARS-CoV-2 spike RBD (ACE2, Homo sapiens, UniProt Q9BYF1); inhibitor).
For `CC[C@H](C)[C@H](NC(=O)[C@H](CCCCN)NC(=O)[C@H](Cc1ccccc1)NC(=O)[C@H](CC(=O)O)NC(=O)[C@@H](NC(=O)[C@H](CC(N)=O)NC(=O)[C@@H](N)CO)[C@@H](C)CC)C(=O)N[C@@H](CCCCN)C(=O)N[C@@H](CCCCN)C(=O)O`, the IC50 was > 10 µM (HLA class I histocompatibility antigen, A alpha chain, allele A*26:01 (Homo sapiens, UniProt P04439); biochemical).
The IC50 of `CC[C@H](C)[C@H](NC(=O)[C@H](CCCCN)NC(=O)[C@H](CCCCN)NC(=O)[C@H](CC(C)C)NC(=O)[C@H](Cc1c[nH]c2ccccc12)NC(=O)CN)C(=O)NCC(=O)N[C@@H](CCCCN)C(=O)N[C@@H](CCCCN)C(=O)N[C@H](C(=O)N[C@@H](CCC(=O)O)C(=O)N[C@@H](CCCNC(=N)N)C(=O)N[C@H](C(=O)NCC(=O)N[C@@H](CCC(N)=O)C(=O)N[C@@H](Cc1c[nH]cn1)C(=O)N[C@H](C(=O)N[C@@H](CCCNC(=N)N)C(=O)N[C@@H](CC(=O)O)C(=O)N[C@@H](C)C(=O)N[C@H](C(=O)N[C@H](C(=O)N[C@@H](CCC(N)=O)C(=O)N[C@H](C(=O)N[C@H](C(=O)NCC(=O)N[C@H](C(=O)N[C@@H](C)C(=O)N[C@@H](CCC(N)=O)C(=O)N[C@@H](CCC(N)=O)C(=O)N[C@@H](C)C(=O)N[C@@H](C)C(=O)N[C@@H](CC(N)=O)C(=O)N[C@H](C(=O)N[C@@H](C)C(=O)N[C@@H](C)C(=O)N[C@H](C(=O)N[C@@H](CC(C)C)C(=O)N[C@@H](CCCCN)C(N)=O)[C@@H](C)O)C(C)C)C(C)C)[C@@H](C)CC)[C@@H](C)O)[C@@H](C)CC)[C@@H](C)O)[C@@H](C)O)C(C)C)[C@@H](C)CC` is reported as > 30 µM (KCNH2 (Homo sapiens, UniProt Q12809); ion current, inhibitor, patch clamp).
With `CC[C@H](C)[C@H](NC(=O)[C@H](Cc1c[nH]cn1)NC(=O)[C@H](Cc1ccc(O)cc1)NC(=O)[C@H](CCCCN)NC(=O)[C@@H]1CSSC[C@@H]2NC(=O)[C@H](CCC(=O)O)NC(=O)[C@H](CC(=O)O)NC(=O)[C@H](C)NC(=O)CNC(=O)[C@H](Cc3ccc(O)cc3)NC(=O)[C@H](CCCCN)NC(=O)[C@@H]3CSSC[C@H](NC(=O)[C@H](C(C)C)NC(=O)[C@H](Cc4ccc(O)cc4)NC(=O)CNC(=O)[C@H](CCCCN)NC(=O)[C@H](CSSC[C@H](NC(=O)[C@@H](N)CO)C(=O)N[C@@H](CCCCN)C(=O)NCC(=O)N[C@@H](Cc4c[nH]c5ccccc45)C(=O)N[C@@H](Cc4ccccc4)C(=O)N[C@@H](CC(N)=O)C(=O)N[C@@H](CCC(=O)O)C(=O)N3)NC2=O)C(=O)N[C@@H](CO)C(=O)N[C@@H](CCCCN)C(=O)N[C@@H](CCCNC(=N)N)C(=O)N[C@@H](CC(=O)O)C(=O)NCC(=O)N[C@@H](Cc2c[nH]c3ccccc23)C(=O)N1)C(=O)N[C@@H](CC(N)=O)C(=O)O` the IC50 was 1.03 µM (SCN9A; ion current, inhibitor, patch clamp).
`CC(C)(OC1OC(CO)C(O)C(O)C1O)C1CCC(C)(C2C(O)CC3(C)C4CC(O)C5C(C)(C)C(OC6OCC(O)C(O)C6OC6OC(CO)C(O)C(O)C6O)CCC56CC46CCC23C)O1` (centres unmarked) gave an IC50 of 15.2 µM (Spike glycoprotein (Severe acute respiratory syndrome coronavirus 2, UniProt P0DTC2); spike RBD-ACE2 binding, inhibitor, ELISA).
The IC50 of `Cc1ccc(N2CCNCC2)cc1C(=O)NC1(c2ccc3c4c(cccc24)CC3)CC1` is reported as 0.021 µM (Replicase polyprotein 1a papain-like protease; enzyme activity, inhibitor).
For `Nc1ncnc2c1ncn2C1OC(COP(=O)(O)OP(=O)(O)OP(=O)(O)O)C(O)C1F` (centres unmarked), the IC50 was > 200 µM (OPG122).
The IC50 of `CC[C@H](C)[C@@H]1NC(=O)[C@@H]2CSSC[C@H](NC(=O)[C@H](CCCNC(=N)N)NC(=O)[C@@H]3CSSC[C@H](NC1=O)C(=O)N[C@@H]([C@@H](C)O)C(=O)N[C@@H](CCCNC(=N)N)C(=O)NCC(=O)N[C@@H](Cc1ccccc1)C(=O)N3)C(=O)N[C@@H](CC(N)=O)C(=O)N[C@H]1CSSC[C@H](NC(=O)[C@H](Cc3c[nH]cn3)NC(=O)[C@H](CCC(=O)O)NC(=O)[C@H](CO)NC(=O)[C@H](C)NC1=O)C(=O)N[C@@H]([C@@H](C)O)C(=O)N2` is reported as > 10 µM (Lethal factor (Bacillus anthracis, UniProt P15917); enzyme activity, inhibitor).
The IC50 of `CN1CCN(c2nnnc3c2sc2nc(N4CCOCC4)c4c(c23)CCCC4)CC1` is reported as 5 ± 1 µM (bglR).
`CC(C)C[C@H](NC(=O)[C@H](CC(=O)O)NC(=O)[C@H](Cc1ccc(O)cc1)NC(=O)[C@H](C)NC(=O)[C@@H]1CSSC[C@@H]2NC(=O)[C@H](CCCCN)NC(=O)[C@H](CC(=O)O)NC(=O)[C@H](CC(N)=O)NC(=O)[C@H](CO)NC(=O)[C@@H]3CCCN3C(=O)[C@H](CC(N)=O)NC(=O)[C@@H]3CSSC[C@H](NC(=O)[C@H](C(C)C)NC(=O)[C@H](CC(C)C)NC(=O)[C@H](CO)NC(=O)[C@H](CO)NC(=O)[C@H](CO)NC(=O)[C@H](CCCCN)NC(=O)[C@H](CSSC[C@H](NC(=O)[C@H](C)N)C(=O)N[C@@H](CC(C)C)C(=O)NCC(=O)N[C@@H](Cc4ccccc4)C(=O)NCC(=O)N[C@@H](CCC(=O)O)C(=O)N[C@@H](CCCCN)C(=O)N3)NC2=O)C(=O)N[C@@H](CO)C(=O)N[C@@H](CCC(N)=O)C(=O)N[C@@H](CCCCN)C(=O)N[C@@H](Cc2c[nH]cn2)C(=O)N[C@@H](CCCCN)C(=O)N[C@@H](Cc2c[nH]c3ccccc23)C(=O)N1)C(=O)O` gave an IC50 of > 30 µM (SCN9A; ion current, inhibitor, patch clamp).
With `COc1nc(N)nc2c1ncn2C1OC(COP(=O)(O)OP(=O)(O)OP(=O)(O)O)C(O)C1O` (centres unmarked) the IC50 was > 200 µM (OPG122).
`CCC(CC)O[C@@H]1C=C(C(=O)O)C[C@H](NCc2ccc(-c3ncccn3)cc2)[C@H]1NC(C)=O` gave an IC50 of 4.2 µM (Neuraminidase (NA, Influenza A virus, UniProt P03468); enzyme activity, inhibitor).
`CSc1ncnc2c1ncn2C1OC(COP(=O)(O)OP(=O)(O)OP(=O)(O)O)C(O)C1O` (centres unmarked) gave an IC50 of > 200 µM (OPG122).
`CNc1nc2sc3c(N4CCNCC4)nnnc3c2c2c1CCCC2` has an IC50 of 0.034 ± 0.002 µM (bglR).
The IC50 of `CCc1ccc(N2CCN(C)CC2)cc1C(=O)NC1(c2ccc3c4c(cccc24)CC3)CC1` is reported as 0.47 µM (Replicase polyprotein 1a papain-like protease; enzyme activity, inhibitor).
With `CCC(C(=O)Nc1ccccc1Cl)n1cccc2nc(SCc3ccc(F)cc3)nc1-2` (centres unmarked) the IC50 was > 100 µM (Replicase polyprotein 1ab, papain-like protease (rep, Middle East respiratory syndrome-related coronavirus, UniProt K9N7C7); enzyme activity, inhibitor).
`CC[C@H](C)[C@@H]1NC(=O)[C@H](CCCNC(=N)N)NC(=O)[C@H](CO)NC(=O)[C@H](CCC(=O)O)NC(=O)[C@H](CC(=O)O)NC(=O)CNC(=O)CNC(=O)[C@H]([C@@H](C)O)NC(=O)[C@H](Cc2ccccc2)NC(=O)[C@H](CO)NC(=O)[C@H]([C@@H](C)O)NC(=O)[C@H](C)NC(=O)[C@@H]2CSSC[C@@H](C(=O)N[C@@H](Cc3ccc(O)cc3)C(=O)N[C@@H](Cc3ccccc3)C(=O)N[C@H](C(=O)N[C@H](C(=O)NCC(=O)O)[C@@H](C)O)[C@@H](C)O)NC(=O)[C@H]([C@@H](C)O)NC(=O)[C@H](CSSC[C@H](NC(=O)[C@H](CCC(=O)O)NC(=O)[C@H](CO)NC(=O)[C@H](CCCCN)NC(=O)[C@H](Cc3ccc(O)cc3)NC(=O)[C@@H]3CCCN3C(=O)[C@H](Cc3ccccc3)NC(=O)[C@H](CCCCN)NC(=O)[C@H](CCCNC(=N)N)NC(=O)[C@H](CCCCN)NC(=O)[C@H](CCCCN)NC(=O)[C@H](Cc3ccc(O)cc3)NC(=O)[C@@H]3CCCN3C(=O)[C@@H](NC(=O)[C@H](CC(=O)O)NC(=O)[C@H](CCCCN)NC(=O)[C@H](CCCCN)NC(=O)[C@@H](NC(=O)[C@@H](NC(=O)[C@@H](N)CCC(=O)O)C(C)C)[C@@H](C)CC)[C@@H](C)O)C(=O)N[C@@H](CC(C)C)C(=O)N[C@@H](CCCCN)C(=O)N[C@@H](C)C(=O)N2)NC(=O)[C@H](CCCCN)NC(=O)[C@H](Cc2ccccc2)NC(=O)[C@H](Cc2ccccc2)NC(=O)CNC(=O)[C@@H]2CCCN2C(=O)[C@H](CCCCN)NC(=O)CNC(=O)[C@H](CCC(=O)O)NC(=O)[C@H](CCC(N)=O)NC1=O` has an IC50 of 2.7 µM (KCNQ2 (Homo sapiens, UniProt O43526); ion current, inhibitor, patch clamp).
`Cc1cc(O)cc(O)c1C(=O)O[C@@H]1CC2=C(COC(CC(C)O)=C2)C(=O)[C@]1(C)O` (some centres unmarked) gave an IC50 of 165 ± 3.6 µM (Neuraminidase (NA, Influenza A virus, UniProt Q6DPL2); influenza A virus H5N1).
The IC50 of `CC(C)C[C@@H]1NC(=O)[C@H](CCCNC(=N)N)NC(=O)[C@@H]2CCCN2C(=O)[C@@H]2CSSC[C@H](NC(=O)CNC(=O)[C@@H]3CCCN3C(=O)[C@H](CCCCN)NC(=O)[C@H](CC(=O)O)NC(=O)[C@@H](NC(=O)CN)C(C)C)C(=O)N[C@@H](CCCNC(=N)N)C(=O)N[C@@H](Cc3ccc(O)cc3)C(=O)N[C@@H](CC(C)C)C(=O)N[C@@H](Cc3ccccc3)C(=O)NCC(=O)NCC(=O)N[C@H]3CSSC[C@H](NC(=O)CNC1=O)C(=O)N[C@@H](CCCCN)C(=O)NCC(=O)N[C@@H](CCCCN)C(=O)NCC(=O)N[C@@H](Cc1c[nH]cn1)C(=O)N[C@@H](CC(=O)O)C(=O)N[C@@H](Cc1ccc(O)cc1)C(=O)N[C@H](C(=O)N[C@@H](C)C(=O)N[C@@H](Cc1c[nH]c4ccccc14)C(=O)N[C@@H](CC(=O)O)C(=O)NCC(=O)N[C@H](C(=O)N[C@@H](Cc1ccccc1)C(=O)N[C@@H](CO)C(=O)N[C@@H](CC(=O)O)C(=O)O)[C@@H](C)O)CSSC[C@H](NC(=O)[C@H](CC(=O)O)NC(=O)[C@H](CC(=O)O)NC(=O)[C@H](CC(=O)O)NC(=O)[C@H](CO)NC(=O)[C@H](CCCCN)NC3=O)C(=O)N2` is reported as 1.45 µM (SCN3A (Homo sapiens, UniProt Q9NY46); peak sodium current, inhibitor, automated patch clamp; HEK293; holding potential -80 mV, with: 0.1 % BSA).
